Values quoted from earlier work as cited in several papers.
Each line is one published result; not all experiments were run side by side. Values after ≈ are worked out from the molar mass of the structure shown.
UniProt Q99558, sequence (whole entry, looked up): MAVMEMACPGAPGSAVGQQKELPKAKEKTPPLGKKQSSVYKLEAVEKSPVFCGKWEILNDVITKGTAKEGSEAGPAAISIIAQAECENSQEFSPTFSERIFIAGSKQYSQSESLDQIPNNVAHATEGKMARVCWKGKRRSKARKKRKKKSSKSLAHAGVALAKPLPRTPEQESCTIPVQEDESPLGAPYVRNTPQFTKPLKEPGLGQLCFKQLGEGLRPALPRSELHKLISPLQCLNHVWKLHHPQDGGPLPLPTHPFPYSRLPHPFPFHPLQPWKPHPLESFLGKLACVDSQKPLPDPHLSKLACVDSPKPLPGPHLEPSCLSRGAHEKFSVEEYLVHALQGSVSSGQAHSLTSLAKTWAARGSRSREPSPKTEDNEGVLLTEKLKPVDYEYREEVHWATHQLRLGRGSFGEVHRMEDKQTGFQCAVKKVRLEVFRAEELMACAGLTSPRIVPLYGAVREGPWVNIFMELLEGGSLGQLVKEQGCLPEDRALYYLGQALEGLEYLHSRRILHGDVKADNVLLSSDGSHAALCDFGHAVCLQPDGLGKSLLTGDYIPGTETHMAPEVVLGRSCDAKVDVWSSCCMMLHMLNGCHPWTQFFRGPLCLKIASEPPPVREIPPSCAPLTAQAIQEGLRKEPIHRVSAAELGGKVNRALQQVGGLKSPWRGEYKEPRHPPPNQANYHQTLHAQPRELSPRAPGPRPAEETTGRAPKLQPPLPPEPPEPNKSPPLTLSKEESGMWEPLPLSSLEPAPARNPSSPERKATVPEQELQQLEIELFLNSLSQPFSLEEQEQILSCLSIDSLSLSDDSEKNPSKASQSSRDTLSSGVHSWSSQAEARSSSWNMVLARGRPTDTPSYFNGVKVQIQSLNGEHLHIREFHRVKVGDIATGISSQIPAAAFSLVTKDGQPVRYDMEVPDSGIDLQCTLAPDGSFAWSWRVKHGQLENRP

SMILES = Nc1cccc2c1C(=O)N(C1CCC(=O)NC1=O)C2=O (stereo not drawn); test system = relapsed refractory multiple myeloma patients; setting = dose not given; endpoint = median overall survival; value = 13.6 months
SMILES = COC(=O)C1=C(C)NC(C)=C(C(=O)OC)C1c1c(-c2cccc(OC)c2)nc2sccn12; test = decrease in atrial rate; test system = guinea pig right atrium; endpoint = EC50; value = 1.36 µM
SMILES = CC(C)(O/N=C(\C(=O)N[C@@H]1C(=O)N2C(C(=O)[O-])=C(C[n+]3ccccc3)CS[C@H]12)c1csc(N)n1)C(=O)O; tested on = Klebsiella pneumoniae; test system = clinical isolate RKI-No_577/15; endpoint = MIC; value = 4 µg/mL (≈ 7.32 µM)
SMILES = CCN(c1cc(-c2ccc(CN3CCOCC3)cc2)cc(C(=O)NCc2c(C)cc(C)[nH]c2=O)c1C)C1CCOCC1; test system = epithelioid sarcoma patients; setting = dose not given, 32 weeks; endpoint = disease control rate; value = 26%
SMILES = COC(=O)C1=C(C)NC(C)=C(C(=O)OC)C1c1c(-c2cc(OC)c(OC)cc2[N+](=O)[O-])nc2sccn12; test = negative inotropic effect; test system = guinea pig, isolated left atrium; endpoint = EC50; value = 1.34 µM
SMILES = Cc1cc(C)c(CNC(=O)c2cc(Cl)c3c(c2C)O[C@@](C)([C@H]2CC[C@H](N(C)C)CC2)O3)c(=O)[nH]1; test system = relapsed/refractory PTCL patients; setting = dose not given; endpoint = median duration of response; value = 56 weeks
SMILES = CC(C)(C)NCC(O)c1ccc(O)c(CO)c1 (stereo not drawn); test system = COPD patients; setting = 1 mg single, 6 h, day 1; how to read = relative to: baseline, placebo-corrected; endpoint = trough FEV1 change; value = 47 mL
SMILES = CC1(C)S[C@@H]2[C@H](NC(=O)[C@H](N)c3ccccc3)C(=O)N2[C@H]1C(=O)O; tested on = Acinetobacter baumannii; test system = clinical isolate RKI-No_19/09; endpoint = MIC; value = > 16 µg/mL
SMILES = O=C(O)c1ccc(O)c(O)c1; test = lung protection; test system = lung injury, acute, LPS-induced mouse; setting = intraperitoneal; endpoint = effective dose; value = 5 mg/kg
SMILES = Nc1cc(C(F)(F)F)c(-c2nc(N3CCOCC3)nc(N3CCOCC3)n2)cn1; tested on = Mitogen-activated protein kinase kinase kinase 14 (MAP3K14, Homo sapiens, UniProt Q99558); test = enzyme activity; setting = 10 µM; how to read = relative to: untreated; endpoint = remaining activity; value = 100%
SMILES = COc1ccc(CC(C)NCC(O)c2ccc(O)c(NC=O)c2)cc1 (stereo not drawn); test system = COPD patients; setting = inhaled, 36 µg single, 12 h post-dose; how to read = relative to: placebo; endpoint = trough FEV1 change from baseline; value = 131 mL
SMILES = COC(=O)C1=C(C)NC(C)=C(C(=O)OC)C1c1c(-c2ccc(OC)c(OC)c2)nc2sccn12; test = decrease in atrial rate; test system = guinea pig right atrium; endpoint = EC50; value = 3.01 µM

Repeated from above:
SMILES = CCN(c1cc(-c2ccc(CN3CCOCC3)cc2)cc(C(=O)NCc2c(C)cc(C)[nH]c2=O)c1C)C1CCOCC1; test system = epithelioid sarcoma patients; setting = dose not given, 32 weeks; endpoint = disease control rate; value = 26%
SMILES = CC(C)(C)NCC(O)c1ccc(O)c(CO)c1 (stereo not drawn); test system = COPD patients; setting = 1 mg single, 6 h, day 1; how to read = relative to: baseline, placebo-corrected; endpoint = trough FEV1 change; value = 47 mL
